# Assay results from different studies.
# Each numbered part is a random draw from the data of one study; scales do not carry over between parts. Values joined by “and” are separate records of one study, mostly repeats; a detail may differ.
# UniProt Q15746, sequence (whole entry, looked up): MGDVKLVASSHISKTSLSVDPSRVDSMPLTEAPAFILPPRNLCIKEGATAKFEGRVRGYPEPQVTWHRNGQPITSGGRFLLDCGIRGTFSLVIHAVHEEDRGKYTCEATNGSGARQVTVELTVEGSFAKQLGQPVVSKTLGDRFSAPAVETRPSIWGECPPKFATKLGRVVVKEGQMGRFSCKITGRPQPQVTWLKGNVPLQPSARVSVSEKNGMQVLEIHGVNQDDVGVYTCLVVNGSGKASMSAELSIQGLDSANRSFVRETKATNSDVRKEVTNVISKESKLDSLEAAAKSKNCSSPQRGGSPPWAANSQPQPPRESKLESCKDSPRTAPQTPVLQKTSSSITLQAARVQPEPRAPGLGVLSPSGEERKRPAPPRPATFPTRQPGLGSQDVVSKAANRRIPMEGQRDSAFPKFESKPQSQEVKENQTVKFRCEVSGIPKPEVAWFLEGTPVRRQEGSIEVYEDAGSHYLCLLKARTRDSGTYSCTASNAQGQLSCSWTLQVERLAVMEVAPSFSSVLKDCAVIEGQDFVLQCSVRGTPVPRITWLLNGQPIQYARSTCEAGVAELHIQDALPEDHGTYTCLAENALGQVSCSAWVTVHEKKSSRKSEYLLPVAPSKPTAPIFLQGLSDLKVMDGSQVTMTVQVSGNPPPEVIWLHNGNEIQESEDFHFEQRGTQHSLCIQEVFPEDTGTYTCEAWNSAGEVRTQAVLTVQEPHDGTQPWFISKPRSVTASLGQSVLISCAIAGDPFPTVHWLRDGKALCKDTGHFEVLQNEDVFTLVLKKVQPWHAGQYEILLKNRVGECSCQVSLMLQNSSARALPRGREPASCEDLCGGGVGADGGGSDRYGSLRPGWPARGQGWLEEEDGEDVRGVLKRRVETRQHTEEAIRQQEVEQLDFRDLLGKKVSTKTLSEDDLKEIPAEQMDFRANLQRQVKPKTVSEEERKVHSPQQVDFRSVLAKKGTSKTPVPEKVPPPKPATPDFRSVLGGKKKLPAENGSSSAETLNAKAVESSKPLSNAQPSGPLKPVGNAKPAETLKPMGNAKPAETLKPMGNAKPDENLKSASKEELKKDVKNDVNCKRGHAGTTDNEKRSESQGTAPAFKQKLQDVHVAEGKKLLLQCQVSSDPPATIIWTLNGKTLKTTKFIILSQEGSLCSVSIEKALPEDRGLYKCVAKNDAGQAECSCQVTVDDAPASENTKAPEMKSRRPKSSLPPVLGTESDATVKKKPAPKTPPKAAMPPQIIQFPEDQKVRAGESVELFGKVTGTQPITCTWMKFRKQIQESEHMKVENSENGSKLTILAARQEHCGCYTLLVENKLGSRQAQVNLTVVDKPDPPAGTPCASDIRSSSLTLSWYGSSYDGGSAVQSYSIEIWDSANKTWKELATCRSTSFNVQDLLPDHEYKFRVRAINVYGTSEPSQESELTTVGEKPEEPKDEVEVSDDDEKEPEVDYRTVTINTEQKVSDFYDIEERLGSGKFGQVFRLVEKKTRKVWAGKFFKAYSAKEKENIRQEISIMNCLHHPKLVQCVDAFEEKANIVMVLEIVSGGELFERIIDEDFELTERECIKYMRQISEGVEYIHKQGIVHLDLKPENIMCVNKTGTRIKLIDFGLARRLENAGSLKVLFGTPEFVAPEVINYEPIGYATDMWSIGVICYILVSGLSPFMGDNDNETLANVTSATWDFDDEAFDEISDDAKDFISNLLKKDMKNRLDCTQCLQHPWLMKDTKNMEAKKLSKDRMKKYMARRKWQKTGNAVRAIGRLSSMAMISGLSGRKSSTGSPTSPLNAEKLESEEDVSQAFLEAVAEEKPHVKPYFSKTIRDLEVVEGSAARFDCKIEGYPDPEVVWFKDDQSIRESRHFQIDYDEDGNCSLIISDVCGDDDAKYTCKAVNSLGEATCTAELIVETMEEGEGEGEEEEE
# UniProt O75385, sequence (whole entry, looked up): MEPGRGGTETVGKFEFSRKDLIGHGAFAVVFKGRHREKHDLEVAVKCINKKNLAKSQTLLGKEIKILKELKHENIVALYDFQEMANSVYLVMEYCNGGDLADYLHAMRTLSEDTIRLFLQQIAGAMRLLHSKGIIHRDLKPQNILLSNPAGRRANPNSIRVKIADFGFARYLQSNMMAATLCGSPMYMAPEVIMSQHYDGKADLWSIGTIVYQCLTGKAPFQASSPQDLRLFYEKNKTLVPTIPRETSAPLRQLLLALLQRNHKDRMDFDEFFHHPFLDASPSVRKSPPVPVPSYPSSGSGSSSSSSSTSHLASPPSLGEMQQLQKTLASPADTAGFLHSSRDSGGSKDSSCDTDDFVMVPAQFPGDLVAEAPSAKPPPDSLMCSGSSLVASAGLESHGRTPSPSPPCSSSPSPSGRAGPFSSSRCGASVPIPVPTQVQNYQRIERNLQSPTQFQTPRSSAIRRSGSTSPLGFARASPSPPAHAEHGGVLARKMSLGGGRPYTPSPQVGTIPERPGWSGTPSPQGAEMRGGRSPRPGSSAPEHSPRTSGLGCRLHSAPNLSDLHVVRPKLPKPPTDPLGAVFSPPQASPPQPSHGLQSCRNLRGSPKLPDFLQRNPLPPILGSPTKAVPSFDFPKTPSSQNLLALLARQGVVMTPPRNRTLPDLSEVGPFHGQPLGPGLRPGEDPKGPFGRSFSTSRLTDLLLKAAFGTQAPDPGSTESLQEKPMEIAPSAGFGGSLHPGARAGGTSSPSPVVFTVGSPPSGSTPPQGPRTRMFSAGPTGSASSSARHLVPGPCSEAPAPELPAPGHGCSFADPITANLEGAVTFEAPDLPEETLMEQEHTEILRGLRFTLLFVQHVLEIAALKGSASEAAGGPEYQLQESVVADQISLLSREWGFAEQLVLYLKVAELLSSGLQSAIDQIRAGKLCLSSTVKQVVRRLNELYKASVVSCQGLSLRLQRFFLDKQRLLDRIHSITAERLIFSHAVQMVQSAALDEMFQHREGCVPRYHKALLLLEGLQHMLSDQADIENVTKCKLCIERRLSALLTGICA
# UniProt P23458, sequence (whole entry, looked up): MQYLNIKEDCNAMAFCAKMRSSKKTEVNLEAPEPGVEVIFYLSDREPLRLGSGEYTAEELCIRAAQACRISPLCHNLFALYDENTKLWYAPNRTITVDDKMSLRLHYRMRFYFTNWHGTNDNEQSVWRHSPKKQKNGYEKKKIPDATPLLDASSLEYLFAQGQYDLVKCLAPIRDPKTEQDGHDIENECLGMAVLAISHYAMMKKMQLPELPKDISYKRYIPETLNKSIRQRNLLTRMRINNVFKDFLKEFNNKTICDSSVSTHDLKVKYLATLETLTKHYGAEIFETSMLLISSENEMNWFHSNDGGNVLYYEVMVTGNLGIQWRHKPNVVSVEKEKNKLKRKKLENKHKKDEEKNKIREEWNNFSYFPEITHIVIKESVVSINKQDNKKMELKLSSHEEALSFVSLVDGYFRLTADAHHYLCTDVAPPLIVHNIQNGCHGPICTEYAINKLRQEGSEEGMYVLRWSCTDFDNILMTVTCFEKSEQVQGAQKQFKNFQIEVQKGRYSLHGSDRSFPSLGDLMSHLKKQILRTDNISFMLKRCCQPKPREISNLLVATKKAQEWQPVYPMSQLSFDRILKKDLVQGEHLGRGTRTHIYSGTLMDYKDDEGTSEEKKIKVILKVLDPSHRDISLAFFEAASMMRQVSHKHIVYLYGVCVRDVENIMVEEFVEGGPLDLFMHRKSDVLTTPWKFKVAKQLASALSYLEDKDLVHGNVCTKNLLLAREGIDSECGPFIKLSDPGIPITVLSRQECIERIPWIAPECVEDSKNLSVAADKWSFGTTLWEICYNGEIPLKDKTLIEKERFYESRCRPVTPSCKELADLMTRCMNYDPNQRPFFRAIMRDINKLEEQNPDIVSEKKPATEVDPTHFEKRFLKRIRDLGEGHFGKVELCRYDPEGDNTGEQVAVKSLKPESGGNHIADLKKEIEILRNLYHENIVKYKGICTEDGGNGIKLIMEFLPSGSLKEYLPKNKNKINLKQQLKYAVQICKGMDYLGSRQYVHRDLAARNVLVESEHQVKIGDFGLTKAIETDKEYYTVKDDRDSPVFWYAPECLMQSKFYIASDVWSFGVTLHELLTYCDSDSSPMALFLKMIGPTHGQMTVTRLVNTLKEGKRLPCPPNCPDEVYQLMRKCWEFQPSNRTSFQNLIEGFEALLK

# Block 1
# Target: Serine/threonine-protein kinase N1 (PKN1, Homo sapiens, UniProt Q16512)
# UniProt Q16512, sequence (whole entry, looked up): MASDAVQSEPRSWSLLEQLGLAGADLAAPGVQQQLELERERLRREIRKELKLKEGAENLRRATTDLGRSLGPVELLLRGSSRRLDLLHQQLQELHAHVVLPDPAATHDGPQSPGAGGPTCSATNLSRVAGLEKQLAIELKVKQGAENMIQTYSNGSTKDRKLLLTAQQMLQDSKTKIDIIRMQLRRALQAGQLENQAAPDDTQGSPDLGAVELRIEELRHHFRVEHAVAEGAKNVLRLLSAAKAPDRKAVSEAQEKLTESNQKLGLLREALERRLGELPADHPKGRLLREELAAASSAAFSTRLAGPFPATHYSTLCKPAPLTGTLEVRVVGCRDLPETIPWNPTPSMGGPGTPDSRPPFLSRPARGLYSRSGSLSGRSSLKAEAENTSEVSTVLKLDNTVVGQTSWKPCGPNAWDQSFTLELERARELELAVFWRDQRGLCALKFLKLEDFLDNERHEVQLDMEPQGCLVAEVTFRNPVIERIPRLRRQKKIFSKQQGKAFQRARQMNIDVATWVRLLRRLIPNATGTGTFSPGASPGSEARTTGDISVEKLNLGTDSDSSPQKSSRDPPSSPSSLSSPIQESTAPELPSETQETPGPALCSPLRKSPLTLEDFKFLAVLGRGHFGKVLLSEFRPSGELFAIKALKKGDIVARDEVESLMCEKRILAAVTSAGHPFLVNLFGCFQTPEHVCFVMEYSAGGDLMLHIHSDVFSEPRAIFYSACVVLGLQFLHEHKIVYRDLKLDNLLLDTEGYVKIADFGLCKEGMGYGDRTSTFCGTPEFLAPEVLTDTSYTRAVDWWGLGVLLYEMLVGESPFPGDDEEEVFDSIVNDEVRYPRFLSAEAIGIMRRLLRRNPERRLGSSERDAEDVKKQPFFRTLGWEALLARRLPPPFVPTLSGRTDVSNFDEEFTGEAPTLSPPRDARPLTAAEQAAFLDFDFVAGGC
# Read-out: enzyme activity
# Action: inhibitor
# Tested at: 0.5 µM
# Relative to: control
Compound,remaining activity
COc1ccc(C(=O)Nc2sc3c(c2C(N)=O)CCCC3)cc1OC,96.3%
COc1ccc(CNC(=O)Nc2ncc([N+](=O)[O-])s2)cc1,94.3%
NCCNc1ncc(C(N)=O)c(Nc2cccc(C(F)(F)F)c2)n1,101%
O=C1NC(=O)C(c2cn(CCCn3ccnc3)c3ccccc23)=C1Nc1ccccc1,22.7%
COc1cc2nccc(Oc3ccc(NC(=S)NC(=O)c4ccccc4C)cc3)c2cc1OC,99.2%
Nc1[nH]nc2nc3ccccc3nc12,92%
Cn1sc(=O)n(Cc2ccccc2)c1=O,98.5%
N#CC(C#N)=C(N)/C(C#N)=C/c1ccc(O)cc1,89%
CC(C)[C@H](CO)Nc1nc(Nc2cc(N)cc(Cl)c2)c2ncn(C(C)C)c2n1,93.3%
Nc1ccc2ncnc(NCCc3ccc(Oc4ccccc4)cc3)c2c1,105%
O=c1c2ccccc2[nH]c(=S)n1CCN1CCC(=C(c2ccc(F)cc2)c2ccc(F)cc2)CC1,103%
Cc1ccc(Nc2nccc(N(C)c3ccc4c(C)n(C)nc4c3)n2)cc1S(N)(=O)=O,102%
O=C(CCCc1ccc(-c2ccccc2F)cc1)Nc1ccc(O)cc1,105%
Cc1cccc(-c2[nH]c(C(C)(C)C)nc2-c2ccc3c(c2)OCO3)n1,108%

# Block 2
# SMILES: CC(C)C(=O)N1CCN(c2nc(OC[C@@H]3CCCN3C)nc3c2CCN(c2cccc4cccc(Cl)c24)C3)C[C@@H]1CC#N
# Cell line: HEK293
# Technique: CellTiter-Glo
# Relative to: vehicle
setting,viability
5 µM,58.7% and 48.5% and 56%
312 nM,91% and 100% and 99.9%
20 µM,22.4% and 19.9% and 21.4%
40 µM,16% and 12% and 15.4%
10 µM,31.7% and 30.5% and 27.3%

# Block 3
# Organism: Sarcocystis neurona
# Read-out: parasite growth
# Tested at: 10 µM
# Time: 96 h
# Setting: second screen
# Relative to: untreated
SMILES,log2 fold change
CCc1oc2ccccc2c1C(=O)c1cc(Br)c(O)c(Br)c1,-0.0261
CC(C)NCC(O)COc1ccc(COCCOC(C)C)cc1 (stereo not drawn),0.26
CC(C)(O)c1ccccc1CC[C@@H](SCC1(CC(=O)O)CC1)c1cccc(/C=C/c2ccc3ccc(Cl)cc3n2)c1,0.39
OCCN1CCN(CCCN2c3ccccc3Sc3ccc(C(F)(F)F)cc32)CC1,-2.69
O=C(O)CCc1nc(-c2ccccc2)c(-c2ccccc2)o1,0.23
C[C@@H](c1ncncc1F)[C@](O)(Cn1cncn1)c1ccc(F)cc1F,0.31
Cc1[nH]c(=O)c(C#N)cc1-c1ccncc1,0.45
CC1CNc2c(cccc2S(=O)(=O)N[C@@H](CCCNC(=N)N)C(=O)N2CC[C@@H](C)C[C@@H]2C(=O)O)C1 (stereo partly drawn),0.33

# Block 4
# SMILES: Nc1c(C(=O)NCc2ccc(C(=O)NCCCC3CCCCC3)cc2)cnn1-c1ccccc1
# Read-out: cell-free assay
# Technique: competition with immobilised ligand
# Tested at: 0.1 µM
target,remaining binding
"Tyrosine-protein kinase JAK1, JH1 (JAK1, Homo sapiens, UniProt P23458)",100%
"PHKG2 (Homo sapiens, UniProt P15735)",100%
"PRKACA (Homo sapiens, UniProt P17612)",100%
"CAMK1G (Homo sapiens, UniProt Q96NX5)",100%
"ULK1 (Homo sapiens, UniProt O75385)",100%
"MYLK (Homo sapiens, UniProt Q15746)",68%

# A few entries again (block 3):
SMILES,log2 fold change
CC(C)NCC(O)COc1ccc(COCCOC(C)C)cc1 (stereo not drawn),0.26
CC(C)(O)c1ccccc1CC[C@@H](SCC1(CC(=O)O)CC1)c1cccc(/C=C/c2ccc3ccc(Cl)cc3n2)c1,0.39
OCCN1CCN(CCCN2c3ccccc3Sc3ccc(C(F)(F)F)cc32)CC1,-2.69
O=C(O)CCc1nc(-c2ccccc2)c(-c2ccccc2)o1,0.23
C[C@@H](c1ncncc1F)[C@](O)(Cn1cncn1)c1ccc(F)cc1F,0.31
